Experimental data pooled from the literature.
A part holds a random share of what one study measured.

Block 1
Target: Interferon regulatory factor 3, full length, phosphomimetic (IRF3, Homo sapiens, UniProt Q14653, residues 1-427, S386D/S396D/S398D/S402D/T404D/S405D)
Method: protein-binding microarray
Form: double-stranded DNA, one strand shown
Medium: in vitro
Concentration: 2540 nM top
Notes: 60-bp whole probe
Together with: salmon DNA 0.4 mg/ml
Baseline: random background probes
Reading: higher = stronger binding
Endpoint: fitted relative affinity
All sequences stand within: GCCTAGCAC … GTCTTGATTCGCTTGACGCTGCTG
Construct (chain): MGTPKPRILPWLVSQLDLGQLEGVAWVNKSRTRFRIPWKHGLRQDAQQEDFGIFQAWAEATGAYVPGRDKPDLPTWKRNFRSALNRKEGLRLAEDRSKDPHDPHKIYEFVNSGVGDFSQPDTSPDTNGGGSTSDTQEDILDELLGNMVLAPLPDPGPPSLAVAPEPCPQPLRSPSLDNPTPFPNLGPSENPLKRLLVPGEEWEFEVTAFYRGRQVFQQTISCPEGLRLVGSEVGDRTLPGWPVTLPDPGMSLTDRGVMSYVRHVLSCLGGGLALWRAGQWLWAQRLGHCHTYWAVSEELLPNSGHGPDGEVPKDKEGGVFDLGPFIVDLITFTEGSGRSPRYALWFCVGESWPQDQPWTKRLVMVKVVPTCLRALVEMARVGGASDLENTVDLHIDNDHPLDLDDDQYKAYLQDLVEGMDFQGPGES
TTATATTCCAGTTTCGATTAGTGCTAG: 4.63 z-score
GACAGTCTCGGTTTCGGGACGTGCTAG: 4.36 z-score
TTAGGTTTCGGTATCGCTTAGTGCTAG: 8.57 z-score
TGAGGTATCCTTATCCTTTAGTGCTAG: 4.95 z-score
TCTGTTGCCCGTATCTAGGTGTGCTAG: 0.565 z-score
TTAGGTATTGGTTTCGGTTAGTGCTAG: 5.75 z-score
TCAACTCTTCTTTTTTTACTGTGCTAG: 0.947 z-score
TTAGAAATGGGGACTGGATTAGTGCTA: -0.457 z-score
TTATGTTTCCTTCTCCTTTAGTGCTAG: 8.94 z-score
GACGGACTGGGGACTGGTGACGTGCTA: -1.01 z-score
TTGGGACTGCTTATCCTTTAGTGCTAG: -0.348 z-score
TCATGTTTCTCAACCATACTGTGCTAG: 1.39 z-score
TCCAGGGCGGTGGGTGGCCCGTGCTAG: -1.55 z-score
TTAGGTCTCGGTTTCGGTAAGTGCTAG: 4.53 z-score
GACGGTATCGACCTTCGGGACGTGCTA: 0.786 z-score
ATAGGACTGCTTATCCTTTAGTGCTAG: 0.16 z-score
TTAGGTATCGGTTTCGGTAAGTGCTAG: 7.84 z-score
TCATATTTAGAACTTCTCACTGTGCTA: 0.704 z-score
GAACATACTAATTTCCATTTGTGCTAG: 2.82 z-score

Block 2
Target: Histone acetyltransferase KAT6A, winged helix 1, GST fusion (KAT6A, Homo sapiens, UniProt Q92794, residues 1-85)
Method: protein binding microarray
Form: double-stranded DNA, one strand shown
Medium: in vitro
Concentration: not given
Notes: 8-mer, flanks averaged, mean of 2 arrays, mostly near background
Baseline: not given
Reading: higher = stronger binding
Endpoint: E-score
Target sequence (chain): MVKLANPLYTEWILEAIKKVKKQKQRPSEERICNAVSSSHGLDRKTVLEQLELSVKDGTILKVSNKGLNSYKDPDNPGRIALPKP
GGTACTGA: 0.109
GTGGTATA: -0.219
GTCCCGAC: 0.272
ATATCCCA: 0.00108
AGGCGCAT: 0.26
AAAAACGA: -0.107
AAAAGGAT: -0.294
ACGCTGTA: 0.094
AGAATTTA: -0.138
CGTATGTA: 0.0272
CATTTCCA: -0.171
ACCTGACT: -0.203
AGGGCGGC: 0.345
CCATCAGC: -0.0184
CTGATGGC: -0.000285
AAAGTTCA: -0.208
CAAGGTGA: -0.169
AGTGCTAA: -0.00326
CCGATCGA: 0.112
AACCTAGG: -0.186
GAAAGGGC: -0.0412
GCCAGCAA: -0.151
CGCTAGGA: -0.0768
CAAGTGTC: -0.116
ATGAATTG: -0.106

Block 3
Target: RNA binding protein fox-1 homolog 2, RRM domain, GST-SBP tag (RBFOX2, Homo sapiens, UniProt O43251-10, residues 100-194)
Method: RNA Bind-n-Seq
Form: RNA
Medium: in vitro
Concentration: 365 nM
Notes: natural RNA segment, single round, ends assumed
Baseline: no-protein control
Reading: higher = stronger binding
Endpoint: RBNS enrichment (R)
Construct (chain): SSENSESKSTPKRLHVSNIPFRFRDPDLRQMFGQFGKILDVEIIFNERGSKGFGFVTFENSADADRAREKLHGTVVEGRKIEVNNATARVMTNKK
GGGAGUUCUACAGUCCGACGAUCACGUGAGAUGAUAAUGAAAACUUUUAGUUUAAGAGUGAAGGGUUAAGUAACCUAACAGAGCUUUGAUGUUAUAGCUGCAUUAAAGAAGGUGAUUGUCAAUAUUACAGAAAUGGAAUUCUCGGGUGCCAA: 0.492
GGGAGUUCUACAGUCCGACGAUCAACAAAAUUGUGGUAUUCAUGACCCAUUUAAUUUACUGAAAAAUCAUAACUGCUGUCCUGCCUGCUCUCCUUGGGUUUCGGUUUUAAAAGCCUUUGUGGUUGAAAUGAAUUGGAAUUCUCGGGUGCCAA: 0.228
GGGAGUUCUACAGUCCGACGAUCAGAUUGUGCAUCUGCAUUCAACUACCCUGAACCCUUAGGGAAGAAAUGGAUUCCCUGGCUGAGCCAGUGUCUCUUUCCCACUGUCCUUUCUCCAGGUGUGCAGAUGGCAUUGGAAUUCUCGGGUGCCAA: 0.301
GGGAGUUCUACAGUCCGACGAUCAUGCCUAUUUUCCAAGCACAGUUCUGCCCCCCGGUUGACUUUUAUGCCACGUGUGCUUCAUGAUGGAACUUUUAGGUCAGUUCCUAUUAAAUGAGCUCUUUUGCAGAUAGUGGAAUUCUCGGGUGCCAA: 0.505
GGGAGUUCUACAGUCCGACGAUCUUUAUUUUAAGGGUUAAAUCACUUUUGCUUGUGUUUAUUACUGCUUGAGGUUGAGCCUUUUUGAGUAUUUAAGAUAUAUAUACCAACGAAACUAUUCUCGCAAGGAAAACUGGAAUUCUCGGGUGCCAA: 0.502
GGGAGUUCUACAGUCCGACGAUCCACUUGUUUCUGUGUAGGAGGUUGAGCUUGUCUUCCAAAAGCCAAGGCGAUGCUACACUGUCCUGUUCCCGAGAUACCUCGCCCUGAACAGAGAUAUAUUUUGUACAAAAUGGAAUUCUCGGGUGCCAA: 0.275
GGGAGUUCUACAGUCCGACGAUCAUUGGGAGAAUUACUGCCUUUACUUUGGGACUACUUUUAUGCUGAUAACUUGGGAUUUCUUGAUAGUCCUUCACCCCUGAAACCCCGUAUUUACUUAACAAGAUUUAGCUUGGAAUUCUCGGGUGCCAA: 0.344
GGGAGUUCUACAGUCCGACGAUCUUUUGAUUCAGAAAUAUAUGAAAUCUGCAUAGUCUUAAUUUGUAAAAAAUAAAGAAAAUUCCUUAACCUUUCCUGGUGUUUGUGUUAAAUUCAAGGGUACAGCUGGUCAUUGGAAUUCUCGGGUGCCAA: 0.49

Block 4
Target: Hepatocyte nuclear factor 3-beta, forkhead domain (FOXA2, Homo sapiens, UniProt Q9Y261, residues 142-269)
Method: protein-binding microarray
Form: double-stranded DNA, one strand shown
Medium: in vitro
Concentration: not given
Notes: k-mer, scored over probes, only values ≥0.25
Reading: higher = stronger binding
Endpoint: E-score
Residues (chain): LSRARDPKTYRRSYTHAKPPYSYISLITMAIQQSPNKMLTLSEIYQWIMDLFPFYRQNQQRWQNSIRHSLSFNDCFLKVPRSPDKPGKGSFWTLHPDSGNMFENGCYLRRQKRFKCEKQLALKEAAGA
CATAGTTA: 0.337
ACGTTTTA: 0.272
ACTAAACA: 0.265
GTCATTAA: 0.36
AATTTACT: 0.3
GTTTAATA: 0.279
GATACGGA: 0.28
ATCACCAT: 0.315
CTTGTATA: 0.322
TTATATAA: 0.295
GATGACAA: 0.298
AGTATAAT: 0.282
